# Measurements collected from several papers.
# Compare with care: the assays were run in different laboratories. Several values in a cell are separate wells, animals, samples, runs or records.
# Target: Serine/threonine-protein kinase pim-2 (PIM2, Homo sapiens, UniProt Q9P1W9)
Compound,assay,conditions,how to read,quantity,result
COc1c(OCCCN2CCOCC2)ccc2c1N=C(NC(=O)c1cnc(N)nc1)N1CCN=C21,"kinase activity, inhibitor",1 µM,relative to: untreated control,remaining activity,100%
Cc1cccc(O[C@H]2CCC[C@@H](C(C)CNCc3ccncc3)C2)c1 (relative stereo),"enzyme activity, inhibitor",1 µM,,inhibition,3%
C=CC(=O)Nc1cccc(-c2cnc3[nH]cc(C(=O)NC(C)(C)C)c3n2)c1,"enzyme activity, inhibitor",0.1 µM,,inhibition,1%
O=C(Cc1ccc(OCc2ccccc2)cc1)NC1(C(=O)O)CCN(C(=O)c2ccc(-c3cccc(Cl)c3)cc2)CC1,"enzyme activity, inhibitor",10 µM,,activity vs control,110%
Cc1cccc(-c2ccc3nc(NC(=O)C4CCCO4)nn3c2)c1 (stereo not drawn),"enzyme activity, Dundee kinase panel",10 µM,,remaining activity,103%
COc1cc(Nc2nc(C)cc(-c3cnn4nc(OC)ccc34)n2)cc(C(F)(F)F)c1,inhibitor,1 µM,relative to: control,remaining activity,95%
CNC(=O)C1CCN(c2cc(C)c(F)cc2NC(=O)c2ccc(-c3cc(O)ccc3C)c(C)c2)CC1,"binding, competition with immobilised ligand",1 µM,,remaining binding,95%
C=CC(=O)N1Cc2nc(-c3cc(-c4cc(Cl)cnc4Cl)c(F)cc3F)n(-c3ccncn3)c2C1,"cell-free assay, inhibitor",1 µM,,inhibition,-1%
Cc1cccc(-c2ccc3nc(NC(=O)C4CCCCC4)nn3c2)c1,"enzyme activity, Dundee kinase panel",10 µM,,remaining activity,100%
CNC1C[S+]2CC[S+]3CC[S+](C1)[Ru-4]321([N]=C=S)[n]2c3ccc(OC)cc3c3c4c(c5cc(F)c[n+]1c5c32)C(=O)NC4=O (stereo not drawn),KinomeScan,0.1 µM,relative to: untreated,remaining binding,19%
C=CC(=O)N1CCCC(n2c(=O)c3ncccc3n(Cc3ccc(Oc4ccccc4)cc3)c2=O)C1 (stereo not drawn),"cell-free assay, competition with immobilised ligand",1 µM,,remaining binding,100%
CN1CC[C@@H](COc2cnc(C#N)cc2-c2ccn3nc(NC(=O)C4CC4)cc3c2)C1,"enzyme activity, inhibitor",1 µM,,inhibition,-2%
CC(C)=CC1OC(C)(C)C2C=C3C(=O)C(Cl)=CC(O)C3C3C(O)C4OC4C(=O)C132 (stereo not drawn),"cell-free assay, competition with immobilised ligand",10 µM,,remaining binding,95%
CC(=O)N1c2ccc(-c3ccc(CNC(=O)c4cn5cc(-c6cnc(N)nc6)nc(N6CCOCC6)c5n4)cc3)cc2CC[C@@H]1C,KINOMEscan,10 µM,,remaining binding,87%
Cc1cnc2nc1Nc1cccc(c1)COC/C=C/COCc1cc(ccc1OCCN1CCOCC1)N2,binding,0.1 µM,,remaining binding,87%
C=CC(=O)N1CCc2ccc(-n3c(=O)ccc4cnc5ccc(-c6cnn(C)c6)cc5c43)cc21,KINOMEscan,1 µM,relative to: DMSO control,remaining binding,100%
C=C1CCCCCCCCCC(CO)C1=O (stereo not drawn),"cell-free assay, competition with immobilised ligand",10 µM,,remaining binding,100%
COc1ccc(NC(=O)Nc2ccc3c(c2)C(=O)N(C(C)CO)CC(C)C(CN(C)Cc2ccc4c(c2)OCO4)O3)cc1 (stereo not drawn),"kinase activity, KinaseProfiler","0.03 µM, species human",relative to: control,remaining activity,102%
NC(=O)[C@@H](O)C[C@H]1CCc2sc3ncnc(O[C@H]4CC[C@H](N5CCOCC5)CC4)c3c21,"enzyme activity, inhibitor",10 µM,,inhibition,0%
COCC12C(=O)NC3C4(C(OC)CC1O)C1CC5(O)C(OC)C(O)C(OC(C)=O)(C1C5OC(=O)c1ccccc1)C3(O)C(OC)C24 (stereo not drawn),"kinase activity, inhibitor, ProQinase kinase profiling",25 µM,relative to: control,remaining activity,72% and 81%
CN1CCN(Cc2ccc(NC(=O)c3cccc(C#Cc4cnc(N)c5ncccc45)c3)cc2C(F)(F)F)CC1,"cell-free assay, competition with immobilised ligand",50 nM,,remaining binding,100%
